# Assay results collected from several papers.
# Parts stem from different laboratories: compare values within a part only.
# Chain of UniProt P07947 (whole entry, looked up): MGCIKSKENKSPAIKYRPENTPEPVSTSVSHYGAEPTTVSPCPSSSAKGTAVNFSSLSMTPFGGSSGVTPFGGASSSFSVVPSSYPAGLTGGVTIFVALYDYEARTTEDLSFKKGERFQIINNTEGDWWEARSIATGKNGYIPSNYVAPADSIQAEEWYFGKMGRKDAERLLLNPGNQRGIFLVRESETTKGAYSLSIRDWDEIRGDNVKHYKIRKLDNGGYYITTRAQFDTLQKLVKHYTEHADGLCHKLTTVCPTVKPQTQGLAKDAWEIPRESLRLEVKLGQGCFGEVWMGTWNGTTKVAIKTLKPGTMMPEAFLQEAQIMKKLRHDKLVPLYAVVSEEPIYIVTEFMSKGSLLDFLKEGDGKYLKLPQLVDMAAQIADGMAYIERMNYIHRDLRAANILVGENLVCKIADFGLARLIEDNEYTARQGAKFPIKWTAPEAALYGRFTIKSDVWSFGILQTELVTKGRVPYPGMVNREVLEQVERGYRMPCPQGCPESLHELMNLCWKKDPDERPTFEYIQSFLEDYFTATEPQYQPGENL
# Chain of UniProt P07948 (whole entry, looked up): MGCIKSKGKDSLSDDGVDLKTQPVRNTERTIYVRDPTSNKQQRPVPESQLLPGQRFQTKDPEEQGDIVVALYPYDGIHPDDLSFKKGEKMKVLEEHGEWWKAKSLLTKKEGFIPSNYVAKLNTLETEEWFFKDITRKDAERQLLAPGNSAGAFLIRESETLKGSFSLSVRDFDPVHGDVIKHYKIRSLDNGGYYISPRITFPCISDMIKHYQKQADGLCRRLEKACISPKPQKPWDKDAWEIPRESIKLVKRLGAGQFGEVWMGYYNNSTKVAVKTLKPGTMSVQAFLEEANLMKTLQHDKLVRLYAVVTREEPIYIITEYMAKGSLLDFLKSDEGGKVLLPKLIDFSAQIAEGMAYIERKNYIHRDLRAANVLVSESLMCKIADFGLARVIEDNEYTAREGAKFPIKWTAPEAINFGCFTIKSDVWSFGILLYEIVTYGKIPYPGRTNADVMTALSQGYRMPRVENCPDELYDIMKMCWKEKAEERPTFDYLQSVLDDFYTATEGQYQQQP
# Chain of UniProt Q15759 (whole entry, looked up): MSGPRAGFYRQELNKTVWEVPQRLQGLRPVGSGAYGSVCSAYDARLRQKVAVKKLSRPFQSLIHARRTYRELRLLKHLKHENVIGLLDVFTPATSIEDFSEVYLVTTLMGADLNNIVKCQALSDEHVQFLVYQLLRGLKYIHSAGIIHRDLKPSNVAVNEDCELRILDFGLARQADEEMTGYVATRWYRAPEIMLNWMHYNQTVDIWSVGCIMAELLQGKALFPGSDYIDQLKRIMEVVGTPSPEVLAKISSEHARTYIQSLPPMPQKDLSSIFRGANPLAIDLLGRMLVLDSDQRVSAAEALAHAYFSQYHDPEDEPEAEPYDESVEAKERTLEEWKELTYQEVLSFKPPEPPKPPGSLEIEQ
# Chain of UniProt P42681 (whole entry, looked up): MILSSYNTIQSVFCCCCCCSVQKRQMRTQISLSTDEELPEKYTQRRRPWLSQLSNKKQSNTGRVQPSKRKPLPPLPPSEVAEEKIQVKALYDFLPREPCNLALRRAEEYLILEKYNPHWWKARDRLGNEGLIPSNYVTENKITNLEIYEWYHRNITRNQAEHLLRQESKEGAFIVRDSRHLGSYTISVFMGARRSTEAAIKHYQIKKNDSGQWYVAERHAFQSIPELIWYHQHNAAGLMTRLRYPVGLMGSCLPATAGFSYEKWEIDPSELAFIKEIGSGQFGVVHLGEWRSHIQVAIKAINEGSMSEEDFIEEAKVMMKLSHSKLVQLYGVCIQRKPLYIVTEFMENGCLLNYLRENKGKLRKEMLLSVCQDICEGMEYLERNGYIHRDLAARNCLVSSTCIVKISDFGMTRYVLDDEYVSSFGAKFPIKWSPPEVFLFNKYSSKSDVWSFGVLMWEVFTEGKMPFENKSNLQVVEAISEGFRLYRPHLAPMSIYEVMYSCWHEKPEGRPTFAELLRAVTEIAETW
# Chain of UniProt Q02750 (whole entry, looked up): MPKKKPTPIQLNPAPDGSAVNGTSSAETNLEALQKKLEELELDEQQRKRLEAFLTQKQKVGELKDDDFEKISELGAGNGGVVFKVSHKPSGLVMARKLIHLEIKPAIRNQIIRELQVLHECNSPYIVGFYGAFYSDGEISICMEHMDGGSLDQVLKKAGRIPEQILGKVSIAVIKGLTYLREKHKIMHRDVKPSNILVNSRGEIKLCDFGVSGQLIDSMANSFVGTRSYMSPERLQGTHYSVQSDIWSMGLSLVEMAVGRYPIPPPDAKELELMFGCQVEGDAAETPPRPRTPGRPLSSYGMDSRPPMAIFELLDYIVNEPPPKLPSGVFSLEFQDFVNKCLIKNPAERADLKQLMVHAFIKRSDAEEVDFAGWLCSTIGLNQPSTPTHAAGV
# Chain of UniProt Q9Y5S2 (whole entry, looked up): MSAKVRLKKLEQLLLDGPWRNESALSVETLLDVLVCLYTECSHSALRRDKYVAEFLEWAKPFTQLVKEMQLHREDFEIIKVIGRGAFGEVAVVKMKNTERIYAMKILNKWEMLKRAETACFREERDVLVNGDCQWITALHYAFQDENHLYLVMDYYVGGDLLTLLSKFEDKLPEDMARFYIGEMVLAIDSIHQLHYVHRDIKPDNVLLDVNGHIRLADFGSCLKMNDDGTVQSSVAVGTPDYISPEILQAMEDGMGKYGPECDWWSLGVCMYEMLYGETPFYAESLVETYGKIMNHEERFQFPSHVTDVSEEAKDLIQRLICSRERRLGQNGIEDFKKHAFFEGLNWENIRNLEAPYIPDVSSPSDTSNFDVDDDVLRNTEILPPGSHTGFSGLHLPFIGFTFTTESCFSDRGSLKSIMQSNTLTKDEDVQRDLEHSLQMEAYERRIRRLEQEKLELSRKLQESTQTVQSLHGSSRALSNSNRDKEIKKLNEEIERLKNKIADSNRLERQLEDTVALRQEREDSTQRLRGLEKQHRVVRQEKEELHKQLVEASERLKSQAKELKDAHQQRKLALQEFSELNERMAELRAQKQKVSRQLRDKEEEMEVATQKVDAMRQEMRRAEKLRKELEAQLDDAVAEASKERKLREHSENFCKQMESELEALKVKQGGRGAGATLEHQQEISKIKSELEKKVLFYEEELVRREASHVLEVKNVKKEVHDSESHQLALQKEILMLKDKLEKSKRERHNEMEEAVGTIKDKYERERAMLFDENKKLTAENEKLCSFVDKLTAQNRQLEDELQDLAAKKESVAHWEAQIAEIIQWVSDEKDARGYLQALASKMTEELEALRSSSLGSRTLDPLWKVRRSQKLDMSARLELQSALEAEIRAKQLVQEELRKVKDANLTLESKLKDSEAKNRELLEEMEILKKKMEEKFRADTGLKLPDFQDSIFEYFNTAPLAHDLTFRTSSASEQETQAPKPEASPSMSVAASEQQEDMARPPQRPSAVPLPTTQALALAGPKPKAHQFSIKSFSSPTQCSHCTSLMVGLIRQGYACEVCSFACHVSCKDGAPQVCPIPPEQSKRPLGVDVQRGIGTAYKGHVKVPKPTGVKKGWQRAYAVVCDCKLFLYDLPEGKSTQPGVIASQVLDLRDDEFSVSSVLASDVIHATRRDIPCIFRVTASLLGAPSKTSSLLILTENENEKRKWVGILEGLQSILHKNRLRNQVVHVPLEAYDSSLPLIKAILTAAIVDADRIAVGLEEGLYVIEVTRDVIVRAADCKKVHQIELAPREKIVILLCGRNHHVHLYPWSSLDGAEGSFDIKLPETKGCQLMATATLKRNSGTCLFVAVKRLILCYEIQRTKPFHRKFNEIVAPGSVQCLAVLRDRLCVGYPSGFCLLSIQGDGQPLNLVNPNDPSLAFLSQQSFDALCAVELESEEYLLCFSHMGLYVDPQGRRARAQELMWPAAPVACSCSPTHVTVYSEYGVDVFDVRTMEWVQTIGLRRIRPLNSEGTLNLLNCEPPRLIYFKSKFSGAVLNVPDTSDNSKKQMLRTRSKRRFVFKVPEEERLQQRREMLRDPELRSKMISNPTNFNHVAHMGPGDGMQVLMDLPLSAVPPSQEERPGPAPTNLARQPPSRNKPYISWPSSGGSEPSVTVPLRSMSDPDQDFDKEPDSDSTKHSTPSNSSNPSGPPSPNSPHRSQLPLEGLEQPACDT
# Chain of UniProt Q9NY57 (whole entry, looked up): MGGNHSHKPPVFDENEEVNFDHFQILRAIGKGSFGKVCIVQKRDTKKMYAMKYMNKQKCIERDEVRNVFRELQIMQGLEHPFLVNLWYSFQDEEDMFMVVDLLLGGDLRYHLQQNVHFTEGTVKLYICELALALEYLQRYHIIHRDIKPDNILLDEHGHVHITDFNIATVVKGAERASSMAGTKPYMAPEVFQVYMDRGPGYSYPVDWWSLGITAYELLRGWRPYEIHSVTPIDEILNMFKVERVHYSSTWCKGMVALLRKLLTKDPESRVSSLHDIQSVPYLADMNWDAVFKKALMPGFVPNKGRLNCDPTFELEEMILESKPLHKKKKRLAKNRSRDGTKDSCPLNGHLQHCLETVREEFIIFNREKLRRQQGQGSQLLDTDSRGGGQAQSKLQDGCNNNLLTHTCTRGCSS

# Series 1
# Compound: O=C(Nc1ccccc1)Nc1cccc(Oc2ccc3nccn3n2)c1
# Tested at: 1 µM
target,technique,item,setting,relative to,remaining binding [%]
"STE20-like serine/threonine-protein kinase (SLK, Homo sapiens, UniProt Q9H2G2)",competitive binding panel,,,vehicle,88
"Tyrosine-protein kinase Yes (YES1, Homo sapiens, UniProt P07947)",competitive binding,,YES,,100
"Proto-oncogene tyrosine-protein kinase Src (SRC, Homo sapiens, UniProt P12931)",competitive binding panel,,,vehicle,100
"Serine/threonine-protein kinase TAO2 (TAOK2, Homo sapiens, UniProt Q9UL54)",competitive binding panel,,,vehicle,100
"Phosphatidylinositol 5-phosphate 4-kinase type-2 beta (PIP4K2B, Homo sapiens, UniProt P78356)",competitive binding panel,PIP5K2B,,vehicle,85
"Cyclin-dependent kinase 11B (CDK11B, Homo sapiens, UniProt P21127)",competitive binding panel,CDC2L1,,vehicle,100
"Tyrosine-protein kinase Lyn (LYN, Homo sapiens, UniProt P07948)",competitive binding panel,,,vehicle,100
"Serine/threonine-protein kinase PAK 1 (PAK1, Homo sapiens, UniProt Q13153)",competitive binding panel,,,vehicle,100

# Series 2
# Structure (SMILES): C[C@@H]1CN(c2cc(-c3nn(C)c4ccc(OC5(C)CC5)cc34)ncn2)C[C@H](C)O1
# Effect on: cell-free assay
# Technique: competition with immobilised ligand
# Tested at: 1 µM
target,remaining binding [%]
"Serine/threonine-protein kinase MARK1 (MARK1, Homo sapiens, UniProt Q9P0L2)",100
"Serine/threonine-protein kinase 32B (STK32B, Homo sapiens, UniProt Q9NY57)",100
"Serine/threonine-protein kinase tousled-like 2 (TLK2, Homo sapiens, UniProt Q86UE8)",97
"Ephrin type-A receptor 4 (EPHA4, Homo sapiens, UniProt P54764)",100
"Phosphatidylinositol 4,5-bisphosphate 3-kinase catalytic subunit alpha isoform (PIK3CA, Homo sapiens, UniProt P42336, M1043I)",96
"Tyrosine-protein kinase FRK (FRK, Homo sapiens, UniProt P42685)",100
"Mitogen-activated protein kinase kinase kinase 12 (MAP3K12, Homo sapiens, UniProt Q12852)",61
"Serine/threonine-protein kinase RIO1 (RIOK1, Homo sapiens, UniProt Q9BRS2)",89

# Series 3
# Target: Eukaryotic initiation factor 4A-I (EIF4A1, Homo sapiens, UniProt P60842)
# Chain of UniProt P60842 (whole entry, looked up): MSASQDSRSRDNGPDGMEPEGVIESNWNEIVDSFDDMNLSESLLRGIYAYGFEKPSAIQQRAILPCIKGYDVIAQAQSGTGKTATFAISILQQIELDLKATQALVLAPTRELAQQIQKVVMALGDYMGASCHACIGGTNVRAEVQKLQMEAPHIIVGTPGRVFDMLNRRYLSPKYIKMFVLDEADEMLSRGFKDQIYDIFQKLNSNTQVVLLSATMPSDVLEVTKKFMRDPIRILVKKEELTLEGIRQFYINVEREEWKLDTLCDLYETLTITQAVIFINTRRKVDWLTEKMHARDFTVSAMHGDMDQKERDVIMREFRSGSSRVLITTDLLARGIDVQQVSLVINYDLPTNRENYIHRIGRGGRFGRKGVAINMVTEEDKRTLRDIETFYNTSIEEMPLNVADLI
# Effect on: RNA clamping
# Technique: fluorescence polarization
# Tested at: concentration not given
# Added: FAM-labelled poly r(AG)8 RNA
# Direction: higher = more clamping
SMILES,fluorescence polarization change [mP]
COc1ccc([C@@]23Oc4cc(OC)cc(OC)c4[C@]2(O)C(=O)[C@H](C(=O)NCCCC2(C)OCCO2)[C@H]3c2ccccc2)cc1,62.8
COc1cc(OC)c2c(c1)O[C@@]1(c3ccc(Br)cc3)[C@H](c3ccccc3)C3=C(N[C@H]4CCCN4C3=O)[C@@]21O,35.1
COC(=O)[C@H]1C(=O)[C@@]2(NCCN(C)C)c3c(OC)cc(OC)cc3O[C@@]2(c2ccc(OC)cc2)[C@@H]1c1ccccc1,-3.2
COC(=O)[C@@H]1[C@@H](c2ccccc2)[C@]2(c3ccc(OC)cc3)Oc3cc(OC)cc(OC)c3[C@@]23N2CCCC2=N[C@@]13O,-3.1
COc1cc(OC)c2c(c1)O[C@@]1(c3ccc(Br)cc3)[C@H](c3ccccc3)C3=C(O[C@@H]4CCCN4C3=O)[C@@]21O,62.4
C#CCCC1(CCNC(=O)CCCn2c(-c3ccccc3)nc3c(c2=O)[C@@H](c2ccccc2)[C@]2(c4ccc(OC)cc4)Oc4cc(OC)cc(OC)c4[C@]32O)N=N1,4.9

# Series 4
# SMILES: c1cc(-c2cnn3cc(-c4ccc(OCCN5CCCCC5)cc4)cnc23)ccn1
# Effect on: enzyme activity
# Action: inhibitor
# Tested at: 0.5 µM
# Relative to: control
target,remaining activity [%]
"Misshapen-like kinase 1 (MINK1, Homo sapiens, UniProt Q8N4C8)",59.4
"G protein-coupled receptor kinase 4 (GRK4, Homo sapiens, UniProt P32298)",97.9
"Dual specificity mitogen-activated protein kinase kinase 1 (MAP2K1, Homo sapiens, UniProt Q02750)",98.8
"Mitogen-activated protein kinase 14 (MAPK14, Homo sapiens, UniProt Q16539)",92.2
"Dual specificity protein kinase CLK4 (CLK4, Homo sapiens, UniProt Q9HAZ1)",5.73
"Tyrosine-protein kinase TXK (TXK, Homo sapiens, UniProt P42681)",54.4
"Mitogen-activated protein kinase 1 (MAPK1, Homo sapiens, UniProt P28482)",99.3
"Calcium/calmodulin-dependent protein kinase type IV (CAMK4, Homo sapiens, UniProt Q16566)",92
"Mitogen-activated protein kinase 11 (MAPK11, Homo sapiens, UniProt Q15759)",96.9
"MAP/microtubule affinity-regulating kinase 4 (MARK4, Homo sapiens, UniProt Q96L34)",48.3
"Discoidin domain-containing receptor 2 (DDR2, Homo sapiens, UniProt Q16832)",90.2
"Serine/threonine-protein kinase Nek3 (NEK3, Homo sapiens, UniProt P51956)",111
"Serine/threonine-protein kinase PLK3 (PLK3, Homo sapiens, UniProt Q9H4B4)",94
"Serine/threonine-protein kinase MRCK beta (CDC42BPB, Homo sapiens, UniProt Q9Y5S2)",95.7

# Repeated from above (series 3):
SMILES,fluorescence polarization change [mP]
COC(=O)[C@@H]1[C@@H](c2ccccc2)[C@]2(c3ccc(OC)cc3)Oc3cc(OC)cc(OC)c3[C@@]23N2CCCC2=N[C@@]13O,-3.1
COc1cc(OC)c2c(c1)O[C@@]1(c3ccc(Br)cc3)[C@H](c3ccccc3)C3=C(O[C@@H]4CCCN4C3=O)[C@@]21O,62.4
